# Published values gathered from unrelated publications.
# A part holds a random share of what one study measured. Substitutions count along the parent as printed.
# Chain of UniProt O15294 (whole entry, looked up): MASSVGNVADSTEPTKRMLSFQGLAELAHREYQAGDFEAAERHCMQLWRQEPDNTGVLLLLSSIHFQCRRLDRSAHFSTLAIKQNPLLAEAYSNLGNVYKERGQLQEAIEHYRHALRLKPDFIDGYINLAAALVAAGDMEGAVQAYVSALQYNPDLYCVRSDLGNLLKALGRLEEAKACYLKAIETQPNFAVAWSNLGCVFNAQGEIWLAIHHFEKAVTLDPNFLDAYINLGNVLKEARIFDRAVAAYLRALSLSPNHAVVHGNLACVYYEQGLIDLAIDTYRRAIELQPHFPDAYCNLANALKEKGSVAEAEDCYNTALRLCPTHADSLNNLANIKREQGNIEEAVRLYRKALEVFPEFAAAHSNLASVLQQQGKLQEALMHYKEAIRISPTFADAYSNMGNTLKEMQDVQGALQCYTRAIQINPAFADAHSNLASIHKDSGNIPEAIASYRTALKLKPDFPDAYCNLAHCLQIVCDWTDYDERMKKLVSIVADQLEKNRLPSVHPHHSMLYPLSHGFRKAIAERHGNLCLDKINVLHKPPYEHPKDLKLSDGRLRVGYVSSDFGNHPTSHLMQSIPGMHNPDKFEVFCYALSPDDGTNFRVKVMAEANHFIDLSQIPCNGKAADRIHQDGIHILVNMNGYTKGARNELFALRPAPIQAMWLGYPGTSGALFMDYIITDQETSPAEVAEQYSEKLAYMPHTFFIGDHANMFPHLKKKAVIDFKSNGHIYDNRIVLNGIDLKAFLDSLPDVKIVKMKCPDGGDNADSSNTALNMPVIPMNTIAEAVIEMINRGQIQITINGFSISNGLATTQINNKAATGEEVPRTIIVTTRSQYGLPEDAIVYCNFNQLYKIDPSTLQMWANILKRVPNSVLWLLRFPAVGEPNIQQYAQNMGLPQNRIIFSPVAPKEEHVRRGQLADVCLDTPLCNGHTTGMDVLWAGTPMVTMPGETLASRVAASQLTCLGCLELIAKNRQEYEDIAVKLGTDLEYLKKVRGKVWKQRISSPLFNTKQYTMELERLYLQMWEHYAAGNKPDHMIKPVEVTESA

# Series 1
# Target: Phosphate system positive regulatory protein PHO4, full length, GST-tagged (PHO4, Saccharomyces cerevisiae, UniProt P07270, residues 1-312)
# Method: competition protein-binding microarray
# Molecule type: double-stranded DNA, one strand shown
# Sample: in vitro
# Tested at: 2 µM
# Setting: whole 60-bp probe, lowest competitor level
# Together with: Cbf1 competitor, 0.05 µM
# Direction: higher = stronger binding
# Target sequence (chain): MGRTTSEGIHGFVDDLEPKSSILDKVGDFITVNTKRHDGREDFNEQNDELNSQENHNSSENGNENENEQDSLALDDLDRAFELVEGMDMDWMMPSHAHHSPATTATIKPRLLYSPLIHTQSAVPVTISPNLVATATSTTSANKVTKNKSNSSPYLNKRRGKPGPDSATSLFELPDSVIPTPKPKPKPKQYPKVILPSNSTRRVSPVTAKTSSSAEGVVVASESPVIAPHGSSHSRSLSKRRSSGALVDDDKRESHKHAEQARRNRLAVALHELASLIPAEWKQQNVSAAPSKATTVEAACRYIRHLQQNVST
Sequence,fluorescence intensity
CATACCCAACCTTGCGCGGTGGGTGAAGATATTTGTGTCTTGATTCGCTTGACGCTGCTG,4290 a.u.
GCAGCACCCAAGCTTCCCGTGTATCCATACCACCCTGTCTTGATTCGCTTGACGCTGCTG,5720 a.u.
CTGGGGATGTTTCCGCACATGAGGGGGGCAGAGGTTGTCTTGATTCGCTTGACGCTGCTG,7270 a.u.
GCCAGTTTTTCGTTGCTCGTGCAAAGTGAGACGGTGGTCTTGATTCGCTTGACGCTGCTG,8820 a.u.
CGTCCTAGTGATTGTCACAAGACTTCCATGAGGAAGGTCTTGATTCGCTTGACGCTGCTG,4310 a.u.
TGCTACTGCTGCTGTTGTGTGACAGGAAACGCGTTTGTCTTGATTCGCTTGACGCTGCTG,4700 a.u.
CGTCCTAGCGATTGACGTGTGGGTGCCATGAGGAAGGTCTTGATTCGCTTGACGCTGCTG,8450 a.u.
ACAACCCTTCCCTTACGCGTGGTCGCTCCCAGTCGAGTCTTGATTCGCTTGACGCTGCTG,7290 a.u.

# Series 2
# Target: RING finger protein unkempt homolog, zinc fingers 1-6, GST-SBP tag (UNK, Homo sapiens, UniProt Q9C0B0, residues 30-357)
# Chain of UniProt Q9C0B0 (30-357, looked up): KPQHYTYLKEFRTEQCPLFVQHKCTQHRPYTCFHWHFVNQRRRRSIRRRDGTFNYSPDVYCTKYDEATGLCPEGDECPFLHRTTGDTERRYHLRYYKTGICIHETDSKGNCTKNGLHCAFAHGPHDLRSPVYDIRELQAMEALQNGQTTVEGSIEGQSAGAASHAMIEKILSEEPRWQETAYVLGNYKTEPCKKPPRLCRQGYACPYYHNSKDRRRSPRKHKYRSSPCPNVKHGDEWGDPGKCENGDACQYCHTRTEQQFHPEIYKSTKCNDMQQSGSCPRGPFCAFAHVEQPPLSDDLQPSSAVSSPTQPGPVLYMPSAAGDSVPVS
# Method: RNA Bind-n-Seq
# Molecule type: RNA
# Sample: in vitro
# Tested at: not given
# Setting: RNA with constant flanks, ends assumed
# Reference: input RNA pool
# Direction: higher = stronger binding
Sequence,bound/input enrichment
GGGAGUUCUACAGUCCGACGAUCACACUCUGACAUGAAUGAAUUAUUAUUAUUUUUAUUUUUCUUUUUUUUUUUACAUUUUGUACCGAAACAAAUUCAUUUAAACAAACUUAUUAUUAUUAUUUUUUACAAAAUAUAUAUAUGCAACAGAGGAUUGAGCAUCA,68.1 ratio
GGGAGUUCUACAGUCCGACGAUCAUAACUACUCCUGCCAUGGCGGUCAGUCAUAUCAUGUUGGAAUCAUAUAAAAAGUAUAUUUCCGUGUCUUUGAUAUUACUUGGCAAAGUACAACAGCUACCAAAAUAUACAUCUCAAAUUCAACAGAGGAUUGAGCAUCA,0.125 ratio
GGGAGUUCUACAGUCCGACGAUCCUGAAGAGUGUUUCUGAAAGAUCUAUCCAGCACUCCGAUGGCCAGCAACAACACCGCCAGCACCGCACAAGCCAGGAAGCUGGUAGAGCAGCUUAAGAUGGAAGCCAAUAUCGACAGGAUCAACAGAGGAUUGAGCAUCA,0.127 ratio
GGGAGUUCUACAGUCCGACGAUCUGCAUUCUACGGCUGUUGGCCCAUUCAUGUCCUCUUGAUGUAUAUGCUGCUUGCCAGAGGUCCGCUUUCUGCAUACUUCAGCCCAUAAUAAUGAAAUCAGCAGUACUCACAUAUUUUGGGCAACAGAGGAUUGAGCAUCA,0.157 ratio
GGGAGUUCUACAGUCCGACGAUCAAAGAUAUCAUUACCAAGGUUGCCAAUGUGGAACUAUACUACAGAGCAAUACAGUUCUACUCCGAAUUCAAGCCUCUGUUGUUAAAUGAUUUGCUGAUGGUGCUGUCUCCACGGUUGGAUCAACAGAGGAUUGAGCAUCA,0.18 ratio
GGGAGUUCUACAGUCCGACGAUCUGCAAGCUGCCAAGACUGUCUCUGAACGGGGUCCGGUUUAAGCGGAUAUCGGGGACAUCCACCGCCUUCAAAAAUAUUGCUUCCAAAAUUGCCAAUGAGCUAAAGCUGUAACCCAGUGAUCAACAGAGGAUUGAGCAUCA,0.128 ratio
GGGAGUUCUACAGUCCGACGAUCCUGACACUACUCUUCACUGAGCUGGCAAAAGUAAUAGAAAGCUCAGCGAAGGGUUUCCCCCGUUUUAUUUCUGAUAUGUUAUCUAAGUGCAAAGUUCAGAAAGUGAUUCUUCAUUGUUUGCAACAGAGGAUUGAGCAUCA,0.187 ratio
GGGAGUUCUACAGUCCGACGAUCAUUUAGAGAAUGAUUUCCACCUUUAUGUUUUAAUAUCCUAGGCAUCUGCUGUAAUAAUAUUUCCGAAAAUGUUUGGAAUUUAAGAAAUAACUUGUGUUACUAAUUUGUAUAACCCAUAUCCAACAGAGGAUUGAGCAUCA,1.8 ratio

# Series 3
# Target: CCNA2, cyclin fold, Cln2 fusion (human)
# Method: yeast growth competition, sequencing
# Sample: yeast
# Setting: strong parent motif
# Reference: not given
# Direction: higher = stronger binding
# Starting sequence: viral docking peptide; KGVKRKLFAEDSS; partner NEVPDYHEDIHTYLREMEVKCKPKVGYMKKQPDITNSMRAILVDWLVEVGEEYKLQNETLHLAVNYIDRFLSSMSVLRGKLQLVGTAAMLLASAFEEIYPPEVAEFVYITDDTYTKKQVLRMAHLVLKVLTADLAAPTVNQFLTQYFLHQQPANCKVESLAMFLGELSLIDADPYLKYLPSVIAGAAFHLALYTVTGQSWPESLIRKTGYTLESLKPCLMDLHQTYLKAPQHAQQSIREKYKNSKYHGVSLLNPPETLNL
Change,normalised enrichment score
L7G,0.646
K4C,6.11
E10W,4.76
F8H,0.52
A9S,6.53
K6D,1.24
K6Y,1.95
L7R,0.446
A9M,6.27
L7A,0.407
A9N,6.17
F8S,0.0886
E10N,6.15
L7V,0.862
E10D,6.73
R5K,5.54
G2E,6.1
F8C,0.506
K4P,4.3
V3P,5.93
E10R,4.72
G2V,5.99
R5Y,0.415
R5A,1.23
V3F,5.97

# Series 4
# Target: Protein max, full length (MAX, Homo sapiens, UniProt P61244-2, residues 1-151)
# Method: protein-binding microarray
# Molecule type: double-stranded DNA, one strand shown
# Sample: in vitro
# Tested at: not given
# Setting: k-mer, scored over probes, only values ≥0.25
# Direction: higher = stronger binding
Sequence,E-score
ATGCGTGG,0.358
TCCATGCA,0.267
ACGCGCTA,0.273
CTCGTGCC,0.4
CAATGTGC,0.367
AGACCACG,0.39
CATGCCTA,0.352
ACGCGGGC,0.308

# Further values, each from its own experiment
# P1: PafA, mature enzyme, eGFP fusion (Elizabethkingia meningoseptica, UniProt Q9KJX5); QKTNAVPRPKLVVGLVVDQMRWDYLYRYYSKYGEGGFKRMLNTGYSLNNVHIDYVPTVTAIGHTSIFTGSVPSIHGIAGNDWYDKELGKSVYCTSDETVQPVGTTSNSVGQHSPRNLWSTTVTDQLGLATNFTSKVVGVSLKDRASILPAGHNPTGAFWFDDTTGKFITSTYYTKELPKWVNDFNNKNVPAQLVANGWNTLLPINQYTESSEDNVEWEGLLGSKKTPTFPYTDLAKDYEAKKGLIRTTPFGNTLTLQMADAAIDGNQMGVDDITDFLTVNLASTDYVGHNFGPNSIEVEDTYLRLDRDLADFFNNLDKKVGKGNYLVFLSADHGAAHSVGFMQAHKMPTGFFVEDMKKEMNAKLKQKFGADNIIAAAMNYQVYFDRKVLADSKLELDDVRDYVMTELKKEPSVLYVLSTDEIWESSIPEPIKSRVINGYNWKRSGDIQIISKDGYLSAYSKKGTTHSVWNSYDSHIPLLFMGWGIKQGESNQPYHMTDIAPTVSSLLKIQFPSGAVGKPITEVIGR
Molecule,target,test,test system,conditions,how to read,endpoint,result
YETMDVFMPQYKIIA,"UDP-N-acetylglucosamine--peptide N-acetylglucosaminyltransferase 110 kDa subunit (OGT, Homo sapiens, UniProt O15294)","binding, phage display NGS",peptide,panning round 2,reference: input library,minimum log2 enrichment ratio,3.2
P1 A377G,"tungstate, free oxyanion",microfluidic competitive inhibition,"in vitro, cell-free expressed","not given, derived from inhibition constants, unchanged parent 2230 nM",lower = stronger binding,oxyanion analog dissociation constant,1.61 µM

# Some of these lines once more (series 3):
Change,normalised enrichment score
L7A,0.407
A9M,6.27
K4C,6.11
F8C,0.506
K6Y,1.95
K6D,1.24
